Experimental data gathered from unrelated publications.
A part holds a random share of what one study measured.
Sequence of UniProt P21580 (whole entry, looked up): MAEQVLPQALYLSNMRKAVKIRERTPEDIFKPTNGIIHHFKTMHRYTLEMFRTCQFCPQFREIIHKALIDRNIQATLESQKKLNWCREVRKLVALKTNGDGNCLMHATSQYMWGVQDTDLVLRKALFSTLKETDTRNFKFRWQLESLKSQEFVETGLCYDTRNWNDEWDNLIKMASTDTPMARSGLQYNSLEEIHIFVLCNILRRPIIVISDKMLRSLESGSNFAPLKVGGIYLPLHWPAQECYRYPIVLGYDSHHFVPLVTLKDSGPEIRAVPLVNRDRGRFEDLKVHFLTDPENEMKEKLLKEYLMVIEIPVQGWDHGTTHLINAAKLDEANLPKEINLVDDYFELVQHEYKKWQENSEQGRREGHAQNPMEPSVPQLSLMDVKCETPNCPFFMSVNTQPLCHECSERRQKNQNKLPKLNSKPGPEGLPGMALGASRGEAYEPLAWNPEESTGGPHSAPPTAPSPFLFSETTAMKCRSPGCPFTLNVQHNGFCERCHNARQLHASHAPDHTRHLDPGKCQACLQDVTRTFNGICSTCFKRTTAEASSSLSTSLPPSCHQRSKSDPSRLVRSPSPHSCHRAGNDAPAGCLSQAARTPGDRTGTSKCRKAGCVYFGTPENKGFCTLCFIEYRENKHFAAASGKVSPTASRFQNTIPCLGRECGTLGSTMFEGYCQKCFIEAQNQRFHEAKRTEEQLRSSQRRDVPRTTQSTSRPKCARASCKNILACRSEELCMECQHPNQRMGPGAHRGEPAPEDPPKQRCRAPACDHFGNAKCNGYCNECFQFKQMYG
Sequence of UniProt Q8N6M0 (whole entry, looked up): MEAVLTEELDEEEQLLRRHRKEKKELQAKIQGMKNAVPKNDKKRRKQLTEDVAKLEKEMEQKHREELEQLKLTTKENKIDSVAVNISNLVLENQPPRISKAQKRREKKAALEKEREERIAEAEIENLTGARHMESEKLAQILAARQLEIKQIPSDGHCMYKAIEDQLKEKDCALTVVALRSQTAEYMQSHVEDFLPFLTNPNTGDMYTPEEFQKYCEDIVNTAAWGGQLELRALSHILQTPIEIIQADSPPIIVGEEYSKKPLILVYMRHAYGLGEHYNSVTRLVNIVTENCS
Sequence of UniProt P09936 (whole entry, looked up): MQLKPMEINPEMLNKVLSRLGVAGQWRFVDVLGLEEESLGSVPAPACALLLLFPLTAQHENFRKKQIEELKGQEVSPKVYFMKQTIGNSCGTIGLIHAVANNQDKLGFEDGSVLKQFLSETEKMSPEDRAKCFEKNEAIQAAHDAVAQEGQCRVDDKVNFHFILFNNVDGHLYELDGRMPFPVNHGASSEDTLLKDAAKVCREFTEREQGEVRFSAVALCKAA

Sample 1
Target: HLA class I histocompatibility antigen, A alpha chain, allele A*26:03 (Homo sapiens, UniProt P04439)
Observed: peptide-MHC binding
Form: peptide
Concentration: concentration not given
Sequence | binding
RRSLLAHVR | inactive
QINELHHSK | inactive
IARLVYKAR | inactive
VLDMGDPVK | inactive
REFEAQNVP | inactive
IEAGDEVFF | inactive
VLYCVHQRV | inactive
GWPDNYCEW | inactive

Sample 2
Molecule: ubiquitin aldehyde
Observed: enzyme activity
USP7: Ubiquitin carboxyl-terminal hydrolase 7 (USP7, Homo sapiens, UniProt Q93009)
Sequence of UniProt Q93009 (whole entry, looked up): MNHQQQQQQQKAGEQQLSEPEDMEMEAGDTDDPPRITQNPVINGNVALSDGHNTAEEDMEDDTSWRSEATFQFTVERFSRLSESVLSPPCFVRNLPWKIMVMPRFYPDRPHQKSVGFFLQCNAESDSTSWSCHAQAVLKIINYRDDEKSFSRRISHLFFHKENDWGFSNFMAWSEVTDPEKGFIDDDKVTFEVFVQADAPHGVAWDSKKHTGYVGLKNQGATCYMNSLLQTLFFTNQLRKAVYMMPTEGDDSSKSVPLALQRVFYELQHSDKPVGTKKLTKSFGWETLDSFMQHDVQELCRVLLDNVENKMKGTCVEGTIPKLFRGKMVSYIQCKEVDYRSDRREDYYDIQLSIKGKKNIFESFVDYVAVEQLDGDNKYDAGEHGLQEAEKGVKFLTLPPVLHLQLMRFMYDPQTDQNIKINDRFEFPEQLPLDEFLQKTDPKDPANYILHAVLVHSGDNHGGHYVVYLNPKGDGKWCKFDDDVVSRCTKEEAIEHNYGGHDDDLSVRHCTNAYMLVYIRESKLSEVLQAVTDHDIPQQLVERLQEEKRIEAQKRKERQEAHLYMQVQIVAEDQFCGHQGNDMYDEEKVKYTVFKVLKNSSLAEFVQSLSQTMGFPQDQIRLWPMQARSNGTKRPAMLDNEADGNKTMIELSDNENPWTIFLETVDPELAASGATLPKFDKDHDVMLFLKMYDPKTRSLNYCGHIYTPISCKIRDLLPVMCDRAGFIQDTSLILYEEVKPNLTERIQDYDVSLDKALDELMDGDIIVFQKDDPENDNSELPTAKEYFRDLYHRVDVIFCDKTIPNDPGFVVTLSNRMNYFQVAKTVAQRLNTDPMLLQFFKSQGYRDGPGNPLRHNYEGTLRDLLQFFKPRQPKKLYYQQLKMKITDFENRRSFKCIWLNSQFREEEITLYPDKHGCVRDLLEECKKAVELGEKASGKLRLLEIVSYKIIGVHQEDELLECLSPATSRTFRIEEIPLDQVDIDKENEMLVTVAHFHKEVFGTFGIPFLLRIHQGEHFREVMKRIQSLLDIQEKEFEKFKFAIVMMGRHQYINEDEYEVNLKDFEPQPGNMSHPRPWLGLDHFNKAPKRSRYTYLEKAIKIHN
USP8: Ubiquitin carboxyl-terminal hydrolase 8 (USP8, Homo sapiens, UniProt P40818)
Sequence of UniProt P40818 (whole entry, looked up): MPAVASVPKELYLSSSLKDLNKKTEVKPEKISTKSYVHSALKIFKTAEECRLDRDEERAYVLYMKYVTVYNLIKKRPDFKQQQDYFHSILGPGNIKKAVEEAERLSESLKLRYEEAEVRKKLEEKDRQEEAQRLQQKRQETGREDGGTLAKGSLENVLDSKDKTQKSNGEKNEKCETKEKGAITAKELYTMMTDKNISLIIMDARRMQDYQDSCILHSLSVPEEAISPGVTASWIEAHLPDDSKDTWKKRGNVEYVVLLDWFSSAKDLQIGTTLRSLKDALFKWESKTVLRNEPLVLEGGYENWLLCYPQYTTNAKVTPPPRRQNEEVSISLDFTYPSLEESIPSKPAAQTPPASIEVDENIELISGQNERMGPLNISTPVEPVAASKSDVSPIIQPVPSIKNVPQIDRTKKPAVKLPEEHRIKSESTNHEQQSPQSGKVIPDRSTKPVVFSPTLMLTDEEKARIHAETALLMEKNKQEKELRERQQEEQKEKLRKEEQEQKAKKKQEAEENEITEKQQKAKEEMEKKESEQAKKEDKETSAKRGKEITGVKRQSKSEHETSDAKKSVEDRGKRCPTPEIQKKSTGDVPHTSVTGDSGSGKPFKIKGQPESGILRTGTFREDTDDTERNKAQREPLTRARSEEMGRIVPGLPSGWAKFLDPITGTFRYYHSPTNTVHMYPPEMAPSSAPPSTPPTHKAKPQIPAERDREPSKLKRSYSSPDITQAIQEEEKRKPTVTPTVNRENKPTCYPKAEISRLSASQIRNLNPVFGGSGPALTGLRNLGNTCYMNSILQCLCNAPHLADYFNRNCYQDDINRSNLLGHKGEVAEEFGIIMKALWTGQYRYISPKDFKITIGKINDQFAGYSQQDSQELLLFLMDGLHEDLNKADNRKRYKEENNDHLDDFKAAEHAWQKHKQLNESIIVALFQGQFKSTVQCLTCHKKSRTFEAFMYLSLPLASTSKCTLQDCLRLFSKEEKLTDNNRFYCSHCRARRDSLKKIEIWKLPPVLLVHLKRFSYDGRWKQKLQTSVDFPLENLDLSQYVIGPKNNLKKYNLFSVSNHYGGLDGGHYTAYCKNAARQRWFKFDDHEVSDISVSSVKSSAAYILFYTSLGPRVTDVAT
target | concentration | inhibition
UCHL1 (Homo sapiens, UniProt P09936) | 0.1 µM | 71%
TNFAIP3 (Homo sapiens, UniProt P21580) | 0.01 µM | 54%
OTUD6B (Homo sapiens, UniProt Q8N6M0) | 1 µM | 100%
USP10 (Homo sapiens, UniProt Q14694) | 1 µM | 83%
USP7 | 0.01 µM | 56%
USP8 | 0.1 µM | 35%
USP7 | 0.001 µM | 12%
USP8 | 1 µM | 85%

Sample 3
Target: UBE2D2 UBC core domain (UniProt P62837)
Sequence of UniProt P62837 (whole entry, looked up): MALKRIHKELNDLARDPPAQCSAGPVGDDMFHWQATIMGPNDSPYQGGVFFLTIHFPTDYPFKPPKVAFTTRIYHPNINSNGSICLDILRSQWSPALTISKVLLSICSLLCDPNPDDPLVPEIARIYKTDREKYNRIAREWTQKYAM
Method: yeast two-hybrid
Medium: yeast
Setting: mostly zero background
Relative to: not given
Reading: higher = stronger interaction
B1: MID1 RING domain (UniProt O15344); chain METLESELTCPICLELFEDPLLLPCAHSLCFNCAHRILVSHCATNESVESITAFQCPTCRHVITLSQRGL
B2: ZNF598 RING domain (UniProt Q86UK7); chain AAAPERGGGSCVLCCGDLEATALGRCDHPVCYRCSTKMRVLCEQRYCAVCREELRQVVFGK
B3: CUL9 RING domain (UniProt Q8IWT3); chain AQAVPVRPDHCPVCVSPLGCDDDLPSLCCMHYCCKSCWNEYLTTRIEQNLVLNCTCPIADCPAQPTGAFIR
B4: TRIM72 RING domain (UniProt Q6ZMU5); chain APGLLHQELSCPLCLQLFDAPVTAECGHSFCRACLGRVAGEPAADGTVLCPCCQAPTRPQALST
Sequence | lacZ reporter activity
B1 (MID1 RING domain) | 0
RLTMMWEEVTCPICLDPFVEPVSIECGHSFCQECISQVGKGGGSVCPVCRQRFLLKNLRP (TRIM21 RING domain (UniProt P19474)) | 0
YWAMDSTFELCKICAESNKDVKIEPCGHLLCSCCLAAWQHSDSQTCPFCRCEIKGWEAVS (CBLC RING domain (UniProt Q9ULV8)) | 0
PEELQAMDNVCIICREEMVTGAKRLPCNHIFHTSCLRSWFQRQQTCPTCRMDVLRASLPA (SYVN1 RING domain (UniProt Q86TM6)) | 0
B2 (ZNF598 RING domain) | 0
B3 (CUL9 RING domain) | 0
EDEVSDNSAECVVCLSDVRDTLILPCRHLCLCNTCADTLRYQANNCPICRLPFRALLQIR (RNF157 RING domain (UniProt Q96PX1)) | 0
B4 (TRIM72 RING domain) | 0

Further values, each from its own experiment
SMILES | cell line | method | concentration | setting | relative to | quantity | value
COCCc1ccc(OCC(O)CNC(C)C)cc1.COCCc1ccc(OCC(O)CNC(C)C)cc1.O=C(O)CCC(=O)O (stereo not shown) | HEK-293T-ACE2 | Hoechst nuclei count | concentration not given | counter-screen | vehicle | cell number | 102%

Excerpt of the above (sample 1):
Sequence | binding
IEAGDEVFF | inactive
VLYCVHQRV | inactive
RRSLLAHVR | inactive
